Assay results from different studies.
Each numbered part is a random draw from the data of one study; scales do not carry over between parts. Positions count from the first letter of the parent shown.

Block 1 — method: RNA Bind-n-Seq; molecule type: RNA; sample: in vitro; concentration: 100 nM; relative to: input RNA pool; reading: higher = stronger binding; quantity: bound/input enrichment
Target: RING finger protein unkempt homolog, zinc fingers 1-6, SBP tag (UNK, Homo sapiens, UniProt Q9C0B0, residues 30-357)
UniProt Q9C0B0, sequence (30-357, looked up): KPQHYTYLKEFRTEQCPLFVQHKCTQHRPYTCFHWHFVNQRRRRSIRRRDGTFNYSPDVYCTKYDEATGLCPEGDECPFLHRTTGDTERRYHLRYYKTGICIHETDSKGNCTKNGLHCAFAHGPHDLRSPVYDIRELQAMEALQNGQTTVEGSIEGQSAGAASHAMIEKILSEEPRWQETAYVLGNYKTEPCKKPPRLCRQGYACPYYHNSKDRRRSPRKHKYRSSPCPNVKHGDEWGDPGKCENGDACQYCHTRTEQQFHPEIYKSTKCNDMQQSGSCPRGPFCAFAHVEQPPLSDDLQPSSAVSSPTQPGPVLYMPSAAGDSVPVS
Setting: RNA with constant flanks, vertebrate orthologous sites, ends assumed
Shared flanks, not repeated: GGGAGUUCUACAGUCCGACGAUC … CAACAGAGGAUUGAGCAUCA
Oligonucleotide = CAGCUGAUUCACUAAUUGGGAGAGCUGCACAUAUAGCUGUUCUUGAUUCAGAAAUAUUUUUAGAAAAAUUUUUUCUGGUUGCUGCCCUCAAAUAUUUCCAGUAGUAUAAAAACAUUUUUA; value = 1.13 ratio
Oligonucleotide = GGAAAAAAUCAGUAGAAUUACAGAAUACUAAAGUUGAAAGGAUAUCCAAGUAUGUGUUGGUAGUUACUAAAAGAAAUAUAGCUGUUAUUGCCUUGUAUUUAUAGCUCUUGUUUCAGGUCU; value = 0.51 ratio
Oligonucleotide = AUGGUGGAUGUACAUUAUCAUUUCAUAUAGAAAAUAUAAAAAUUCAUUUUGUUUUUAAGCUAGGUGUUAAACUGGAAUAGCUAUUAUACCCCUGAGAAUGGGGCAGUUGUGCCCUUCCCU; value = 2.98 ratio
Oligonucleotide = GCAGUGAAAAAGCAGCCCUUCUCCCAGCCCCCUUUUCACUAGGAGAUACGAACGUUUCCGUAGAAGAGCAAUUAAACUCAAUAAAUUUAUCUUUUCAGGAUGAUCCAGAUUCCAGUACCA; value = 1.11 ratio
Oligonucleotide = AUAGAAGAACUCUUGCAGUCUUAGAUGUUAUAAAAUAUAUAUCUGAAUUGUAAGAGCUGUUUAGCACAUUUUUUUUUUUUAAGCACUUGUUUUGGGUACAAAGCAUUUCUGAAAGUUUGC; value = 2.02 ratio
Oligonucleotide = GUAAUGUGUUUUUAUUUAUUGAAAAUUGUUUGUGCUAAGGAUUGUGUUAGAUUUACAAAUUAGUGGAUUGAUUCCUCUUUGUUGUGUUGCUUUCAUUGUUGAAAAUAAAUAGAACUUUGA; value = 1.4 ratio
Oligonucleotide = UUGUGCUUAUGCUCUUCUGUAGAAGAGACGAAUUGGGGAAACUGUCUCCUUUUUAUAGACUACUUUGUUUCUAAAUUAUGACCAAAAAAUAUUUUGCUAUUUCUUUCUUUAUAUAUGGAC; value = 0.972 ratio
Oligonucleotide = UUCAGGCACAACUGACUGGUUCACAGCAUCCCUUACAUAGCUACCUAUCAAGUGCAAGUAUUGGUAAUUUUCAGGAACCAUCCAGGCAGUCGUCUUUAUCCUGUAGUUCAGUUCGAGAUU; value = 0.541 ratio

Block 2 — method: EMSA with sequencing; molecule type: double-stranded DNA, one strand shown; sample: in vitro; concentration: 10 and 20 nM; relative to: negative control set to 0; reading: higher = stronger binding; quantity: normalised bound fraction
Target: Hepatocyte nuclear factor 3-alpha (Foxa1, Mus musculus, UniProt P35582, residues 1-468, full length assumed)
Setting: whole designed probe, mean of two concentrations, ends assumed
Shared flanks, not repeated: GTGAGCGGTGCCCATTGATGGGGAAC … TTTCACTGGGATCGTGGGGAC
Construct (chain): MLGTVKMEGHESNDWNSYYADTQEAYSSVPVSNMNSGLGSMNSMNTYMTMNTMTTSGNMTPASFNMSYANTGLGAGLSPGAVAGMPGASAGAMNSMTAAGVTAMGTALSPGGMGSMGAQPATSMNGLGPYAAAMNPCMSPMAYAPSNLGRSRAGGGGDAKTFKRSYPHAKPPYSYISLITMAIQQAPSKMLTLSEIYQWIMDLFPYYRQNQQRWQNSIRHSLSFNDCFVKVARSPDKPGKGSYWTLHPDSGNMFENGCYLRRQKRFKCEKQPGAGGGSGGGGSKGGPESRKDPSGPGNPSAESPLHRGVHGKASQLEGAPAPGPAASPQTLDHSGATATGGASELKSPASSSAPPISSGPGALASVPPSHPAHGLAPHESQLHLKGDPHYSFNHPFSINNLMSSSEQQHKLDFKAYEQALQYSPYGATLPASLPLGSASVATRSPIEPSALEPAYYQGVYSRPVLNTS
Oligonucleotide = TAAACATGCTATGAACCAGTGCTAAGTTATACACCAGGCTGGCTTCAAAAATGATTATCAAACTGTGTAGGGATAACTGAAACCAGTAACAGAGTAAACACTGTGTTAGGATAATAGGGTGCTGACAGGGCGAATGCCTTCCAGCTGAATCATTTTTCCATTCCTGGAATGTTTTGAAATGGAGAATTAAGCA; value = 0.3 ratio
Oligonucleotide = AGGCACAAGGTATGAATCACTAAGAATCTAGCAGCAGCTCTAGAAGCCTCCAAAGATAATTGCACTTCCCGGGGGTGGAGTCAACAGGGGGACGTAAATATGAAAGAACAGTGGATGGCCTAAATCAGTATGTGTCACTCTTTGTAAAGAGCCACAAGTGTTTGACTAGGGAAAAAGGAAAAGAGGCGAGAGT; value = 0.0134 ratio
Oligonucleotide = ATCTTCCCCCTCTTCCTTGCCCCACCAGCTCACCTTCCCGGGTTGTTTACTTTGAGCAAAGTAAACAAAGCCGGCATTCGTTAACCCTCTTCACGCGCATACTGCCAAAGTAAACAGATCTAACATGGTCCTTTGGCGACGCCAGGCTCCGGGAGAGCAAAGCACCGTGTCAGGGCCATGATCCGGGGTGGCC; value = 0.559 ratio
Oligonucleotide = ATCTTCCCCCTCTTCCTTGCCCCACCAGTTCACCTTCCCGGGTATATTGGAGATAGGAAATTAATATAAGCCGGCATTCGTTAACCCTCTTCTGGCGCAAACTGCACATTGGTCTGGATGAATCATGGTCCTTTGGCGACGCCAGGCTCCGGGAGAGCAAAGCACCGTGTCAGGGCCATGATCCGGGGTGGCC; value = 0.0136 ratio
Oligonucleotide = TATTTACTGACCTAAACTTGGCTGTAACAGCTCTTACTCCCTCAGAGGAGGTACATGAGAGTTAAATGAGGTAATGAATTGCGCAGCCATCTGTAAACATGACGAGGCTTTGTAAACAGAACTGGGACAACACAAACATTCGCTAGAATAATTCTCCCACTCCTTGAAAGAGTACACATCCCTTACCCCACCT; value = 0.398 ratio

Block 3 — method: protein binding microarray; molecule type: double-stranded DNA, one strand shown; sample: in vitro; concentration: not given; relative to: not given; reading: higher = stronger binding; quantity: E-score
Target: Histone acetyltransferase KAT6A, winged helix 2, GST fusion (KAT6A, Homo sapiens, UniProt Q92794, residues 85-181)
Setting: 8-mer, flanks averaged, mean of 2 arrays, mostly near background
Construct (chain): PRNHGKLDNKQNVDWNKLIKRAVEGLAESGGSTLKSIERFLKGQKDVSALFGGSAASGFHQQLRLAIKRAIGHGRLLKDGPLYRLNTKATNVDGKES
Oligonucleotide = CAATGCGA; value = 0.104
Oligonucleotide = AGTAATAT; value = -0.000795
Oligonucleotide = ATGCACCC; value = 0.122
Oligonucleotide = CGAGCCCG; value = 0.0258
Oligonucleotide = AGGGCAAC; value = 0.0319
Oligonucleotide = ACAATTAA; value = 0.0343
Oligonucleotide = CAGACCAC; value = -0.00621
Oligonucleotide = CAGAACGG; value = -0.00319
Oligonucleotide = GCGTCCCC; value = 0.0231
Oligonucleotide = ACGTTTAG; value = -0.233
Oligonucleotide = ATGGCCGG; value = 0.0462
Oligonucleotide = CAGATCCA; value = 0.129
Oligonucleotide = GCTAGAAA; value = 0.0735
Oligonucleotide = TAAATAAA; value = 0.0325
Oligonucleotide = CCCGGCAG; value = 0.144
Oligonucleotide = AGTCATGA; value = -0.00256

Block 4 — target: BIRC6 UBC core domain (UniProt Q9NR09); method: yeast two-hybrid; sample: yeast; setting: mostly zero background; relative to: not given; reading: higher = stronger interaction; quantity: lacZ reporter activity
UniProt Q9NR09, sequence (whole entry, looked up): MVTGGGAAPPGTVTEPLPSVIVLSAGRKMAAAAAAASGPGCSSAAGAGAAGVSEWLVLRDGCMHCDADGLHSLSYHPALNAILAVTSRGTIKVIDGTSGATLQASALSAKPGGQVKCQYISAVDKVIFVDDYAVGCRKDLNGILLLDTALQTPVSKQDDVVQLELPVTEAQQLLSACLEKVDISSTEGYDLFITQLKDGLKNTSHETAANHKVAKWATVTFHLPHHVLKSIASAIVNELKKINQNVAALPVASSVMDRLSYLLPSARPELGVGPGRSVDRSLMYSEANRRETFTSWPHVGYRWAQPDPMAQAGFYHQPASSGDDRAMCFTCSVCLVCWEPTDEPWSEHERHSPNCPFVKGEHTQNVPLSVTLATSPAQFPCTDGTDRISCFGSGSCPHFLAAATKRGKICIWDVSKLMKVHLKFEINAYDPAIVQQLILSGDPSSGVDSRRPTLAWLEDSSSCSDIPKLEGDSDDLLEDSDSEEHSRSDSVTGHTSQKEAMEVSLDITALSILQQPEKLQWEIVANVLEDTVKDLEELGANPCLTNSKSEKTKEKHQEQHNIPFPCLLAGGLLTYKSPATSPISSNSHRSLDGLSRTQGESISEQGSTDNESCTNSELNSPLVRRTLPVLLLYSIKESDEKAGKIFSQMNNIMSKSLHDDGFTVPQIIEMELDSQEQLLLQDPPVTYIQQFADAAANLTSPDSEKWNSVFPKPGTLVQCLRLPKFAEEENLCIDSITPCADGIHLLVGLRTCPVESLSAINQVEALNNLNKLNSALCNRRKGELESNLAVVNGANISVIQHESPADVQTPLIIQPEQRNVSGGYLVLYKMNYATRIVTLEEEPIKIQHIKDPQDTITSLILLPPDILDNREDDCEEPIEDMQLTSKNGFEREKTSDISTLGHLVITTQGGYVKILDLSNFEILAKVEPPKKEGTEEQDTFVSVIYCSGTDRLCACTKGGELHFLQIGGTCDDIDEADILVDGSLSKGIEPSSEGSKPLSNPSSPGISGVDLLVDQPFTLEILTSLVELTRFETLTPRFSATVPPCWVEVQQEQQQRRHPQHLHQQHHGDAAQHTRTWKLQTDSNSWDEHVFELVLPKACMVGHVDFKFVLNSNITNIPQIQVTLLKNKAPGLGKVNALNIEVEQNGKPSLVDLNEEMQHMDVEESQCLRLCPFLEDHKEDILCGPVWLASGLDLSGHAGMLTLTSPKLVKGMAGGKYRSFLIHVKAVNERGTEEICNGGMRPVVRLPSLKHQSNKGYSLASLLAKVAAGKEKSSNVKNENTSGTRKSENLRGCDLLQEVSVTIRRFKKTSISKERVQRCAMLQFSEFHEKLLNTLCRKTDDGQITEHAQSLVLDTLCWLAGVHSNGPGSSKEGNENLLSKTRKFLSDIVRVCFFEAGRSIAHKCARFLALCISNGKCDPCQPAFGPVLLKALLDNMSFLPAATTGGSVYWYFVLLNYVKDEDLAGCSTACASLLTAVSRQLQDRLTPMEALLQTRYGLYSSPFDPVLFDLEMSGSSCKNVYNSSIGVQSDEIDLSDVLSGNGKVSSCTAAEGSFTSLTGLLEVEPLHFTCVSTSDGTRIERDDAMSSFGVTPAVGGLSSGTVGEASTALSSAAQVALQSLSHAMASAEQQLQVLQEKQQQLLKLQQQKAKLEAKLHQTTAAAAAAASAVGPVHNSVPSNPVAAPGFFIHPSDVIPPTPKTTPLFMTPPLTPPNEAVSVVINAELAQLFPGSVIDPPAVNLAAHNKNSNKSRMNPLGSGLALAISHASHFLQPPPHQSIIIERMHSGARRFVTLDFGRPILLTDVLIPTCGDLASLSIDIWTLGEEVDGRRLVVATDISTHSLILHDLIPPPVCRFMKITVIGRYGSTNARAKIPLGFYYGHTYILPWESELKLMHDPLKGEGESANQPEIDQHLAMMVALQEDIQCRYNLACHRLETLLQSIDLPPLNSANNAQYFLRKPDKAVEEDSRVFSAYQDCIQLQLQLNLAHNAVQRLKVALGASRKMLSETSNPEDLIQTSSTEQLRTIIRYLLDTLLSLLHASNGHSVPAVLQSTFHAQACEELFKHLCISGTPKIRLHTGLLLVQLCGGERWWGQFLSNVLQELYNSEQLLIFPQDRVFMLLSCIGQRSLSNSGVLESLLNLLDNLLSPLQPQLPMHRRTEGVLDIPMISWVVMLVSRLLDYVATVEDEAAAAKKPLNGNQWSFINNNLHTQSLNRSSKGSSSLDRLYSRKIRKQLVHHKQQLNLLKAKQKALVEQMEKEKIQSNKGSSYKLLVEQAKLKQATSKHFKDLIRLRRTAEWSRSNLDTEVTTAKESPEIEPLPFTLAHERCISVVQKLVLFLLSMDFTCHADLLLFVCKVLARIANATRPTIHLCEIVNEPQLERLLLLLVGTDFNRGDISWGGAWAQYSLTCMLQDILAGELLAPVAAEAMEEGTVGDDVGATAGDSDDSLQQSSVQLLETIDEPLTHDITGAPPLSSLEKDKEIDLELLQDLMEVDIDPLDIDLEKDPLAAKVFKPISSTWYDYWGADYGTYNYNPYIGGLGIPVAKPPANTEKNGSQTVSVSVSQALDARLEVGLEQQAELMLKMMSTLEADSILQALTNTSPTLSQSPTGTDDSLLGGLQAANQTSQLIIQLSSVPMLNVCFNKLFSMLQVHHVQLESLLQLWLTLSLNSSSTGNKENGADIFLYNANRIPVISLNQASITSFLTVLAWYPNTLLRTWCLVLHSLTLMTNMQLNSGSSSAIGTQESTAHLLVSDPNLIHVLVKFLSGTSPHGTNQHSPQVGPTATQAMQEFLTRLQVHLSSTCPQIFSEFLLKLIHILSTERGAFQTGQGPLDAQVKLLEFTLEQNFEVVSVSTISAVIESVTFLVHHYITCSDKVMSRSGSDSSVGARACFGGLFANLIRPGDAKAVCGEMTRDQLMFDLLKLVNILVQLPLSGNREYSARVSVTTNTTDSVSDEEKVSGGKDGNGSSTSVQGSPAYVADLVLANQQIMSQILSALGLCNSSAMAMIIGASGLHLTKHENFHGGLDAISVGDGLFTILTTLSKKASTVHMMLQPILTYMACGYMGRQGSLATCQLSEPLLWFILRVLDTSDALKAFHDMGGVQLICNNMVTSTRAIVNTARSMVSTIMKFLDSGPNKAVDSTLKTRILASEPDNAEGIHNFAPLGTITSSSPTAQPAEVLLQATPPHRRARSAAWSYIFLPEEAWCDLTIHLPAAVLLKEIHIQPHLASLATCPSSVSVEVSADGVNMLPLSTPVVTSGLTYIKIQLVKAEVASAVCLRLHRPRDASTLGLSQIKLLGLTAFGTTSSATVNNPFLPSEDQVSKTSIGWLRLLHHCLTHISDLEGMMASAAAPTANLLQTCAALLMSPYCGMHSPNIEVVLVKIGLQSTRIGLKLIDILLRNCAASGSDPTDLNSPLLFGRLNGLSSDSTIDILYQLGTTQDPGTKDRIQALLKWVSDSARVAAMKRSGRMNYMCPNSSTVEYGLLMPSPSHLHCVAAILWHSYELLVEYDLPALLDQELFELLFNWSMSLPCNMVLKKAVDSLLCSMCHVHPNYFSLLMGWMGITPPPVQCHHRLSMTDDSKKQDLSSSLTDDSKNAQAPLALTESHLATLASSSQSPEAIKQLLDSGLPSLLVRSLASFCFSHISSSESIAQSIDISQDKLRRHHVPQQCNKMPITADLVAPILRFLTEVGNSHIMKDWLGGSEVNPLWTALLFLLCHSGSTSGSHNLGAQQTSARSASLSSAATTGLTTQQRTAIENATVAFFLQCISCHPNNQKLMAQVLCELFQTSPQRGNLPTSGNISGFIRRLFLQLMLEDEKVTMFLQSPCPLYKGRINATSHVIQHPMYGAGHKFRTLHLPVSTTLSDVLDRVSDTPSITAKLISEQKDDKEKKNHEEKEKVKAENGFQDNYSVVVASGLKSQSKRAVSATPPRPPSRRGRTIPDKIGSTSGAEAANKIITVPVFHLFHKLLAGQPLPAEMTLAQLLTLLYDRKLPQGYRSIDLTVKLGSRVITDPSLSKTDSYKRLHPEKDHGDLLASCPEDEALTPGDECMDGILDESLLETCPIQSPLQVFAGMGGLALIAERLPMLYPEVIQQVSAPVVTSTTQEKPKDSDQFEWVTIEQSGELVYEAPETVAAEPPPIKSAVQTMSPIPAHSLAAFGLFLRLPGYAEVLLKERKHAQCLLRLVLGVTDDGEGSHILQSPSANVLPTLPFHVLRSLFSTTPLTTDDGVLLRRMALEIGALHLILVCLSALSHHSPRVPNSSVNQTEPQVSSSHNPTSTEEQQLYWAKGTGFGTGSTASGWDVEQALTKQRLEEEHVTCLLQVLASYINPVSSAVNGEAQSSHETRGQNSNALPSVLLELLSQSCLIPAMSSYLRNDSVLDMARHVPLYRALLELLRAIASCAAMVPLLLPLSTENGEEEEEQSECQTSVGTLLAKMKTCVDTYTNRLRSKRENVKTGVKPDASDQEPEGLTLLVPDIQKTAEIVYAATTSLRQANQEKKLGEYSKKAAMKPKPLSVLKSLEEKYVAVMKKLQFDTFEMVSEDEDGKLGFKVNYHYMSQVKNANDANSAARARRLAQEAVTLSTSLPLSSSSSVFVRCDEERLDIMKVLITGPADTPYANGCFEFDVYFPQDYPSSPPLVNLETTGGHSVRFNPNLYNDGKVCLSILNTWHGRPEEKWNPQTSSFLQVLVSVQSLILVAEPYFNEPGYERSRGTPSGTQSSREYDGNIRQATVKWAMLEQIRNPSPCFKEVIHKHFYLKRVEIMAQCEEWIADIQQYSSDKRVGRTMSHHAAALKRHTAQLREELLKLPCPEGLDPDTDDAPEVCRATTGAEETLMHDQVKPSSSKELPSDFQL
B1: ZMIZ2 RING domain (UniProt Q8NF64); chain GTIPGTPGPNGEDGVEQTAIKVSLKCPITFRRIQLPARGHDCRHIQCFDLESYLQLNCERGTWRCPVCNKTALLEGLEVDQYMLGILIYIQNSDYEEITIDPTCSWK
B2: RBCK1 RING domain (UniProt Q9BYM8); chain SLVLNTEPAECPVCYSVLAPGEAVVLRECLHTFCRECLQGTIRNSQEAEVSCPFIDNTYSCSGKLLEREIK
B3: SH3RF1 RING domain (UniProt Q7Z6J0); chain DESALLDLLECPVCLERLDASAKVLPCQHTFCKRCLLGIVGSRNELRCPECRTLVGSGVEEL
B4: SYTL4 RING domain (UniProt Q96C24); chain RGSQHYSDRTCARCQESLGRLSPKTNTCRGCNHLVCRDCRIQESNGTWRCKVCAKEIELKKAT
B5: RNF121 RING domain (UniProt Q9H920); chain MPTKHLSDSVCAVCGQQIFVDVSEEGIIENTYRLSCNHVFHEFCIRGWCIVGKKQTCPYCKEKVDLKRMFS
B6: MAP3K1 RING domain (UniProt Q13233); chain NSIKDEEEQMCPICLLGMLDEESLTVCEDGCRNKLHHHCMSIWAEECRRNREPLICPLCRSKWRSHDFYS
B7: MDM4 RING domain (UniProt O15151); chain MEDCQNLLKPCSLCEKRPRDGNIIHGRTGHLVTCFHCARRLKKAGASCPICKKEIQLVIKVF
Sequence = GSDDEEIPFKCFICRQSFQNPVVTKCRHYFCESCALQHFRTTPRCYVCDQQTNGVFNPA (RNF113A RING domain (UniProt O15541)); value = 0
Sequence = B1 (ZMIZ2 RING domain); value = 0
Sequence = B2 (RBCK1 RING domain); value = 0
Sequence = FDGDVDPDLKCALCHKVLEDPLTTPCGHVFCAGCVLPWVVQEGSCPARCRGRLSAKELN (PDZRN3 RING domain (UniProt Q9UPQ7)); value = 0
Sequence = B3 (SH3RF1 RING domain); value = 0
Sequence = B4 (SYTL4 RING domain); value = 0
Sequence = B5 (RNF121 RING domain); value = 0
Sequence = B6 (MAP3K1 RING domain); value = 0
Sequence = B7 (MDM4 RING domain); value = 0
Sequence = KETIKKTTKPCPRCHVPVEKNGGCMHMKCPQPQCRLEWCWNCGCEWNRVCMG (PRKN RING domain (UniProt O60260)); value = 0

Block 5 — target: CCND1, cyclin fold, Cln2 fusion (human); method: yeast growth competition, sequencing; sample: yeast; setting: strong parent motif; relative to: not given; reading: higher = stronger binding; quantity: normalised enrichment score
Starting sequence: CDKN1A docking peptide (human); SKACRRLFGPVDS; partner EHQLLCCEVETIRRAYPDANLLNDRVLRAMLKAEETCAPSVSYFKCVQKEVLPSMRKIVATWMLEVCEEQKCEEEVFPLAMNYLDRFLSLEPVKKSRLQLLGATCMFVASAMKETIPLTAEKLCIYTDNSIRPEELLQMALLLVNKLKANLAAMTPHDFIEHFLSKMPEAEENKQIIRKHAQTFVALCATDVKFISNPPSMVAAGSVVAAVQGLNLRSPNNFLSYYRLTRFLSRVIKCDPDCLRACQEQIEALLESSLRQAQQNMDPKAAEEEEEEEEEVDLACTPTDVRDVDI
Variant = SKACKRLLGPVDS [R5K F8L]; value = 0.137
Variant = SKACRRLFGPVNS [D12N]; value = 2.07
Variant = SKACRRLFGLVDS [P10L]; value = 0.705
Variant = SKACRRLFGFVDS [P10F]; value = 0.911
Variant = SKACCRLFGPVDS [R5C]; value = 0.645
Variant = SKACRRIFGPVDS [L7I]; value = 0.583
Variant = SKACRRLFPPVDS [G9P]; value = 3.55
Variant = SKACRRLFGHVDS [P10H]; value = 1.25
Variant = SKACRRQFGPVDS [L7Q]; value = 0.219
Variant = SKACRRLFGGVDS [P10G]; value = 2.24
Variant = SRACRRLFGPVDS [K2R]; value = 2.55
Variant = SKACRRRFGPVDS [L7R]; value = 0.0341
Variant = SKACRRLFGPVKS [D12K]; value = 1.52
Variant = SPACRRLFGPVDS [K2P]; value = 2.93
Variant = SKACGRLFGPVDS [R5G]; value = 0.252
Variant = SKACRRLFGWVDS [P10W]; value = 0.887

For quick reference, copied from above (block 5):
Variant = SKACRRRFGPVDS [L7R]; value = 0.0341
Variant = SKACCRLFGPVDS [R5C]; value = 0.645
Variant = SKACRRQFGPVDS [L7Q]; value = 0.219
Variant = SKACGRLFGPVDS [R5G]; value = 0.252
Variant = SKACRRLFGLVDS [P10L]; value = 0.705
Variant = SKACRRLFGFVDS [P10F]; value = 0.911
